Experimental data from different studies.
Every numbered part comes from another study and shows a few of its results, in no order. Positions count from the first letter of the parent shown.

Study 1
Target: Histone acetyltransferase KAT6A, both winged helices, GST fusion (KAT6A, Homo sapiens, UniProt Q92794, residues 1-181)
Technique: protein binding microarray
Molecule type: double-stranded DNA, one strand shown
Sample: in vitro
Tested at: not given
Notes: 8-mer, flanks averaged, mean of 2 arrays, mostly near background
Relative to: not given
Reading: higher = stronger binding
Construct (chain): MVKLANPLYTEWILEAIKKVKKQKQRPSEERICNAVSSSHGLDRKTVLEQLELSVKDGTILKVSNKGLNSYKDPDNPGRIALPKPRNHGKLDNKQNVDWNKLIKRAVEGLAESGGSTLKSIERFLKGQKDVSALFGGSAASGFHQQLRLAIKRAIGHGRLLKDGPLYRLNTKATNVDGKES
Sequence | E-score
ACGCCCCC | 0.12
GCACACTA | -0.107
ATTGTACG | 0.0196
GTTTGTTA | 0.0147
AAATCACG | 0.109
TGCTAACA | -0.12
ATTCGGTG | -0.135
CAAACGCC | -0.0174
GCCCTAAA | 0.0729
CCCATCAG | -0.157
GGCAGTGA | -0.117
AGTGGACG | -0.0653
CATTTCGG | -0.0751
CCCCTTCA | -0.237
ATGCCAAG | -0.334
ATTAATTC | -0.00197
ATACGCAG | 0.0601

Study 2
Target: RNA binding protein fox-1 homolog 2, RRM domain, GST-SBP tag (RBFOX2, Homo sapiens, UniProt O43251-10, residues 100-194)
Technique: RNA Bind-n-Seq
Molecule type: RNA
Sample: in vitro
Tested at: 365 nM
Notes: natural RNA segment, single round, ends assumed
Relative to: no-protein control
Reading: higher = stronger binding
Target sequence (chain): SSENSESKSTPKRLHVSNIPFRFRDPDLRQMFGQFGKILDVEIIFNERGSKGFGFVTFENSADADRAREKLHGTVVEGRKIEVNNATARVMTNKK
Sequence | RBNS enrichment (R)
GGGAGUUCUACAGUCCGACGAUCUAGCACAAAUCGAACUUAGGAUUUGUUUCUUCUCUUCUGUGUUUCGAUUUUUGAUCAAUUCUUUAAUUUUGGAAGCCUAUAAUACAGUUUUCUAUUCUUGGAGAUAAAAAUGGAAUUCUCGGGUGCCAA | 0.367
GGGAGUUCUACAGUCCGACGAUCGUCUCCGAAUCUGAGAAUUCGAAAGAAAGCUAUGCUCAGUCUCUGUACAUGCUGAACUCCAAAUUCUUCCAUAUCAACUUCAAGCCCCAAGCCUCCAAUGUAUUACCUACUGGAAUUCUCGGGUGCCAA | 3.72
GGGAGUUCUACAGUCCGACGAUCCAGUAGGUCUUGUGCAGUGUCACUUGUAGUUGCAUGGUUACAGCGUGCUGAGUUUGACCAUUACAUUCAAAACUAAAACCUGUGUAGGAAGGUUAAGGUCGUGGCAGCAGUGGAAUUCUCGGGUGCCAA | 6.36
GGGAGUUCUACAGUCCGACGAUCACGGUUCGGGCUGGCGUGCAGCUCUCCCAGCCAGCCACGCUCUGCUCAGGCCUGGAAGUGAAAGCCGCCUCCUUCCCGUUAUGCCCCCCAUACAGGAGCCUCGGUUUUUCUGGAAUUCUCGGGUGCCAA | 0.429
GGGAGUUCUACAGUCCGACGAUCUUGUCUAAGCAGAGCGCCUCAGGGACGCUGGAAAUGCCUUAAGGAUAGAGGCUGGGCAUCACAUCAAAUGGGACUGUGGUGUUUGGUGAAAACCUUCCUGAGGAUCUGGAUGGAAUUCUCGGGUGCCAA | 0.356
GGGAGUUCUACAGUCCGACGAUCUUACCUUCUGCUUUCUCUUUGUCCACUUACGCAGUAGGUGACUGGCAUGUGCCACAGAGCAGGCCCUGCCUCACUGUCUGCUGGUCAGUUCUGGGUUCACUUAAUGGCUUUGGAAUUCUCGGGUGCCAA | 0.784
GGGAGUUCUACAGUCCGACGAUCGAUGAGUUAAAGUUGUAUUCUGAAAUCAUGAAGCCAGAGCCUGUGCCAGACCUUCUGCUACCUCUCAUAGAAUUGCUCUGUAAUUCUAAAUUUAAAAUUAGAAGUAGAGAUGGAAUUCUCGGGUGCCAA | 0.299
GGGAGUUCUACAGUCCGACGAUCAAUCCUCACUGCCAGCCCCUCUUAAACAGGUAGAGAGCUGUGAGCCCCAGCCCCACCUGACUCCAGCACACCUGGCGAGUAGUAGCUGUCAAUAAAUCUAUGGUAAACAGUGGAAUUCUCGGGUGCCAA | 0.379
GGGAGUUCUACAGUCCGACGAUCGCUCAGAGAGGAGGAUCUAUGCUGACCUCAGAAGAUGUAGAUGUUUACAUAAUUUAAUACAGAUUGAUGUUAAUACUUGUGUAUUUACAUAACCAUUUCCUUCUUGUCACUGGAAUUCUCGGGUGCCAA | 0.248
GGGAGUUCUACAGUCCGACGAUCUUCUGUGCAUGUACUAAAAAAGGAGAAAUUAUAAUAAAUUAGCCGUCUUGCGGCCCCUAGGCCUAAACUUCUGGUAUCUUAGUGUCUCAGUAUCUUAGUGUCCUUCACUCUGGAAUUCUCGGGUGCCAA | 33.4
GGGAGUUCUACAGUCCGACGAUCUCAGAGUGGAACAAAGAGUGGGAAGAGGUGAUCUGUAAUGUUACAAAUUGUGCUAUUACUCCAAGGUCCAACUUUUCCAGUGCAUUACAUGGUAUUGUAUAUCAGUGGAGUGGAAUUCUCGGGUGCCAA | 0.333
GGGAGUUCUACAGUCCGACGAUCACAAACCCAAGAAACGCAUCCCCAUUGUGUGAUGUGUUCAGAUGCAUCUGGCACCAAUUAGGUAUUUCUUAAAACAGGACUCAUCUGUCAGAGUGCACAUGAAAAAUCAGUGGAAUUCUCGGGUGCCAA | 0.44

Study 3
Target: CCNB1, cyclin fold, Cln2 fusion (human)
Technique: yeast growth competition, sequencing
Sample: yeast
Notes: weak parent motif
Relative to: not given
Reading: higher = stronger binding
Parent: SGO1 docking peptide (human); PLAKRALKYTDEK
Substitution | normalised enrichment score
PLAKRALKYADEK [T10A] | 0.35
PLAKAALKYTDEK [R5A] | 0.04
PAAKRALKYTDEK [L2A] | 0.348
ALAKRALKYTDEK [P1A] | 0.292
PLAKRALKYTDAK [E12A] | 0.369

Study 4
Target: Sal-like protein 4, full length isoform A (SALL4, Homo sapiens, UniProt Q9UJQ4, residues 1-1053)
UniProt Q9UJQ4, sequence (whole entry, looked up): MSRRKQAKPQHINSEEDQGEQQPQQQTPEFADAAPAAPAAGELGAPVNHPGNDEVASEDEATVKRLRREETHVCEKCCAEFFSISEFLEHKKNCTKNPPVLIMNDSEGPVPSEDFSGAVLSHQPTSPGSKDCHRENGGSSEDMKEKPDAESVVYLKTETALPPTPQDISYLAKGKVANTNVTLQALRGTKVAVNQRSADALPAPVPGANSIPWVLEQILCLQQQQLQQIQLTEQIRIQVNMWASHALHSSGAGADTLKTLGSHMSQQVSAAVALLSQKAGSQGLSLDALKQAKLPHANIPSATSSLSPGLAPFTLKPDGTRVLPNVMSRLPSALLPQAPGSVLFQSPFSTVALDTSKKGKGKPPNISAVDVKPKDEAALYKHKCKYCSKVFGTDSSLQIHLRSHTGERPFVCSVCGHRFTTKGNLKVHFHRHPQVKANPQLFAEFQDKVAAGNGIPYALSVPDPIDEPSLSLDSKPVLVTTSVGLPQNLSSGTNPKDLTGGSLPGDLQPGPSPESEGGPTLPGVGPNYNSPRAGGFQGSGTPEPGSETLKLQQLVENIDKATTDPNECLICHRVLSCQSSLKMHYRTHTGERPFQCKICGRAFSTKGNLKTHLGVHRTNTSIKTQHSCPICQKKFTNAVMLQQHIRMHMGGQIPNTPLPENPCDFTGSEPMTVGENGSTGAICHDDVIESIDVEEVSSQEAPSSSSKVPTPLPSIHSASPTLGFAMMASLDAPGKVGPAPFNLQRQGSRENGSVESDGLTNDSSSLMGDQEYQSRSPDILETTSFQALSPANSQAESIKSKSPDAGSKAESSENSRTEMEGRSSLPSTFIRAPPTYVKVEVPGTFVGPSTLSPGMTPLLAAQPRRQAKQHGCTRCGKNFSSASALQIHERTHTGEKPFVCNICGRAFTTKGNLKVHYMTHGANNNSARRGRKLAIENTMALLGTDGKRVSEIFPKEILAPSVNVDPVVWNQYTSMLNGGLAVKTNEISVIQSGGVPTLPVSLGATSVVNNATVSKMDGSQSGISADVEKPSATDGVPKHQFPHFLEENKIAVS
Technique: universal PBM
Molecule type: double-stranded DNA, one strand shown
Sample: in vitro
Tested at: 600 nM
Notes: 8-mer, flanks averaged, mean of replicates
Reading: higher = stronger binding
Sequence | E-score
CCCCAGCC | -0.283
GACTGAAA | 0.0887
GTTCAAAC | 0.0545
AGGGTACC | -0.324
ACAATTGC | 0.163
CCAAATAG | 0.0378
TATGGCAA | 0.213
AACTTATT | 0.31
GGATGATA | 0.185
CTCAGACC | -0.135
CCTCCACA | -0.0339
ATCGGAAC | -0.105
ACCACACG | -0.0561
CCATGACC | -0.278
CTCAGTCA | -0.121
TAGGCCAA | -0.00532
GAAGGGGC | -0.289
GTCAAATA | 0.285
GGGCACAA | -0.0726
CGTTTACC | 0.00992
ATTACCTG | 0.19
CAGAGATC | -0.169
CCATGAAA | 0.2
GTCTGACA | -0.0426
AAACCGTT | -0.0817

Study 5
Target: Interferon regulatory factor 3, full length, phosphomimetic (IRF3, Homo sapiens, UniProt Q14653, residues 1-427, S386D/S396D/S398D/S402D/T404D/S405D)
Technique: protein-binding microarray
Molecule type: double-stranded DNA, one strand shown
Sample: in vitro
Tested at: 2540 nM top
Notes: 60-bp whole probe
Together with: salmon DNA 0.4 mg/ml
Relative to: random background probes
Reading: higher = stronger binding
Constant ends, left off below: GCCTAGCAC … GTCTTGATTCGCTTGACGCTGCTG
Construct (chain): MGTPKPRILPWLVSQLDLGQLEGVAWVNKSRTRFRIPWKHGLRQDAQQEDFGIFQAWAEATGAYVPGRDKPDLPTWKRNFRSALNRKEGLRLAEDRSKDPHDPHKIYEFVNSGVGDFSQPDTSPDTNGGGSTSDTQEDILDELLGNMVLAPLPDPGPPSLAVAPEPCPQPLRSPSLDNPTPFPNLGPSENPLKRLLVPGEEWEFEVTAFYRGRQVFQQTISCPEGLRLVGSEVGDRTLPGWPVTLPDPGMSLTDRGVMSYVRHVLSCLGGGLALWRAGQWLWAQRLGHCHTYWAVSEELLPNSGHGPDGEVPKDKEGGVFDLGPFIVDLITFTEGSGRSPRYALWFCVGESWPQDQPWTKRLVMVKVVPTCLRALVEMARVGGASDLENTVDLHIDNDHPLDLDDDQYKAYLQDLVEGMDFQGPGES
Sequence | fitted relative affinity
GACTATATCAGACTGGAGACGTGCTAG | 0.216 z-score
GACGAACTGAGTATCGATACGTGCTAG | 0.704 z-score
TTAGACATCGGGTTTCGATTAGTGCTA | 1.42 z-score
GACGGTTTCGGGGTTCGGGACGTGCTA | 3.76 z-score
TTAGGTATCGACACCGGGTTAGTGCTA | 0.201 z-score
TTAGATTTCAGTCTCGATCAGTGCTAG | 2.38 z-score
TAAGGTCTCGGACTGGGTTAGTGCTAG | -0.586 z-score
TTAGGTATCGGTACCGGTTAGTGCTAG | 3.35 z-score
AACGGTTCCGGTTTCGGGACGTGCTAG | 6.37 z-score
TAAGAACTGGGGTATCGATTAGTGCTA | -0.327 z-score
GCCGATTTCGGGTATCGAGACGTGCTA | 2.37 z-score
TGCTCTCCGGGGTCTGTGAGGGTGCTA | -0.676 z-score
TTAGATTTCAGGTTTCGATTAGTGCTA | 3.02 z-score
TTAGAACTGGGTATCGATTAGTGCTAG | -0.148 z-score
CTCTGTCTGGGATGTAATTCCGTGCTA | -0.304 z-score
TATCAGGGCATCCCCTTGAAGTGCTAG | -0.222 z-score
TTTGAACTGAGTCTCGATTAGTGCTAG | -0.218 z-score

A few entries again (study 5):
Sequence | fitted relative affinity
TAAGGTCTCGGACTGGGTTAGTGCTAG | -0.586 z-score
GACTATATCAGACTGGAGACGTGCTAG | 0.216 z-score
GACGAACTGAGTATCGATACGTGCTAG | 0.704 z-score
AACGGTTCCGGTTTCGGGACGTGCTAG | 6.37 z-score
TTAGGTATCGACACCGGGTTAGTGCTA | 0.201 z-score
TTAGAACTGGGTATCGATTAGTGCTAG | -0.148 z-score
TTAGATTTCAGGTTTCGATTAGTGCTA | 3.02 z-score
TATCAGGGCATCCCCTTGAAGTGCTAG | -0.222 z-score
GCCGATTTCGGGTATCGAGACGTGCTA | 2.37 z-score
